Measurements gathered from unrelated publications.
Protocols differ between the studies behind these lines. “And” joins repeats or separate records; there may be more than shown. Numbers after ± are the reported error.

CC(C)=CCC[C@](C)(O[C@@H]1O[C@H](CO)[C@@H](O)[C@H](O)[C@H]1O)[C@H]1CC[C@]2(C)[C@@H]1[C@H](O)C[C@@H]1[C@@]3(C)CC[C@H](O[C@@H]4O[C@H](CO)[C@@H](O)[C@H](O)[C@H]4O[C@@H]4O[C@H](CO)[C@@H](O)[C@H](O)[C@H]4O)C(C)(C)[C@@H]3CC[C@]12C gave a remaining compound of 86.1 ± 3.6% (rat plasma; 1 ng/mL, 24 h, room temperature).
Cn1cncc1-c1c(F)cncc1NC(=O)c1c(N)nn2cc(F)cnc12 has a remaining compound of 105% (human EDTA plasma; 15 ng/mL, 6 h, room temperature, low QC).
CC[C@H](C)C(=O)O[C@H]1C[C@@H](C)C=C2C=C[C@H](C)[C@H](CC[C@@H]3C[C@@H](O)CC(=O)O3)[C@H]21: remaining compound “not detected” (mouse liver microsomes; 30 min).
O=C(Oc1coc(CSc2ncccn2)cc1=O)c1ccc([N+](=O)[O-])cc1 gave a remaining compound of < 10% (RPMI with 10% FBS; 100 µM, 2 day).
COc1ccc(-c2cc(NCCCN3CCCCC3)c3ccccc3n2)cc1 has a remaining compound of 97.4% (human plasma; 1 h).
With COc1ccc2c(Cc3ccccc3F)c3[n+](cc2c1OC)CCc1cc2c(cc1-3)OCO2.[Br-] the remaining compound was 14.4 ± 1.9% (rat liver microsomes; 10 µM, 30 min, pH 7.4, added: microsomes 0.5 mg/mL).
CC(C)[N+](C)(CCOC(=O)C1c2ccccc2Oc2ccccc21)C(C)C gave a remaining compound of 100% (pooled human plasma; 0 min, 37 °C).
C/C(=N\NC(=O)c1cccc(S(=O)(=O)N2CCN(C)CC2)c1)c1cc(Cl)ccc1O has a remaining compound of 74% (aqueous buffer; 4 days, 37 °C).
With NCc1cc2c(cc1F)C(=O)N(C1CCC(=O)NC1=O)C2 (stereo not drawn) the remaining compound was < 1% (male New Zealand White rabbit, whole blood; 3 h, without inhibitor).
CCOC(=O)[C@H](CCc1ccccc1)N[C@@H](C)C(=O)N1CCC[C@H]1C(=O)O has a remaining compound of 92.7% (human plasma; 10 µM, 30 min).
O=C(Nc1ccc(F)cc1)N1CCNCC1COc1ccc2ccccc2c1 (stereo not drawn) has a remaining compound of 43 ± 3% (mouse liver microsomes; 90 min).
The remaining compound of CO[C@@H](C[C@H]1C(C)=CC[C@@H]2[C@]3(C)C[C@H](O[C@@H]4O[C@@H](C)[C@H](OC(=O)c5cccc(O)c5)[C@@H](O[C@@H]5O[C@H](CO)[C@@H](O)[C@H](O)[C@H]5NC(C)=O)[C@H]4O)[C@@H](O)C(C)(C)[C@H]3CC[C@]21C)[C@H](N)C(=O)O.O=C(O)C(F)(F)F is reported as 102% (simulated gastric fluid with pepsin; 1 µM, 60 min, pH 1.2).
For CCOc1ccc2ccc(=O)oc2c1, the remaining compound was 58% (human liver microsomes; 1 µM, 10 min, pH 7.4).
CC(C)=CC(=O)CCC(=O)N1CCN(Cc2cc3nc(-c4cccc5[nH]ncc45)nc(N4CCOCC4)c3s2)CC1 gave a remaining compound of 45.3% and 45% (microsomes, rat liver, male, Sprague-Dawley; 1 µM, 60 min, without NADPH, 0.5 mg/mL microsomal protein).
N#Cc1ccc(Nc2nc(N)cc(Oc3c(F)cc(-c4ccc(C#N)cc4)cc3F)n2)cc1 gave a remaining compound of 85.4% (monkey plasma, diluted in PBS; 1.00 µM, 1.00 h, 37 °C).
For NC(=O)c1ccccc1NC(=O)c1ccc(-c2ccccc2)cc1, the remaining compound was 103% (human plasma; 2 µM, 2 h, 37 °C).
With CC[N+]1(C)CCN(c2ccc(NC(=O)c3cccc(C)n3)cc2)CC1 the remaining compound was 105% (pooled BALB/c mouse plasma; 1 µM, 2 h).
For O=Cc1cc2ccccc2cc1C=O, the remaining compound was 82% (HPLC-MS; HEPES buffer with 10% acetonitrile; 1 mM, 1 h, pH 7.4).
CNc1cc[n+](CCNC(=O)c2ccn3c(-c4c(C)noc4C)cnc3c2)cc1.[Cl-] has a remaining compound of 100 % peak area (aqueous buffer; initial, pH 10).
The remaining compound of Cc1cc2ccccc2n1CCNC(=O)c1ccc(-n2cnnn2)cc1 is reported as > 7% (mouse liver microsomes; 60 min).
Under remaining compound, C[C@]1(C(=O)[C@H](Cc2ccccc2)NC(=O)[C@@H]2Cc3ccc(cc3)OCCCCCCCC(=O)N3CCC[C@H]3C(=O)N2)CO1 is recorded as “not detected” (human liver microsomes; 60 min).

A few entries again:
With CC[N+]1(C)CCN(c2ccc(NC(=O)c3cccc(C)n3)cc2)CC1 the remaining compound was 105% (pooled BALB/c mouse plasma; 1 µM, 2 h).
For O=Cc1cc2ccccc2cc1C=O, the remaining compound was 82% (HPLC-MS; HEPES buffer with 10% acetonitrile; 1 mM, 1 h, pH 7.4).
